Experimental data of several laboratories.
Compare with care: the assays were run in different laboratories. Several values in a cell are separate wells, animals, samples, runs or records. ± gives the spread as reported.

`CCOc1cc(/C=C2\CN(C(C)=O)CC3=C2OC(N)=C(C#N)C3c2ccc(O)c(OCC)c2)ccc1O` (stereo not drawn) has a body weight of 149 ± 2.1 g (Wistar rats, tumour-bearing; dose not given, day 21).
The dose-normalized AUC(0-t) of `COc1cc2c3c(n(CCCNCCO)c(=O)c2cc1OC)-c1nc2c(cc1C3=O)OCO2` is reported as 1.8 ng·h/mL (male CD1 mouse, plasma; oral, 10 mg/kg).
`C[C@@H]1CCO[C@H]2Cn3cc(C(=O)NCc4ccc(F)cc4F)c(=O)c(O)c3C(=O)N12` gave an AUC(0-24) of 43600 ng·h/mL (population PK, post-hoc; children, 20 to <25 kg, plasma; oral, 16 mg granules, steady state, geometric mean).
The Rash incidence of `C[C@@H]1COCCN1c1cc(C2([S@](C)(=N)=O)CC2)nc(-c2cc[nH]c3nccc2-3)n1` is reported as 0% (Japanese advanced solid tumour patients; oral, 160 mg twice daily, CTCAE grade ≥3).
`COc1ccc2[nH]c([S+]([O-])Cc3ncc(C)c(OC)c3C)nc2c1` (stereo not drawn) gave an AUC(0-t) of 247 ± 80.4 ng·h/mL (healthy Chinese volunteers CYP2C19 RM, plasma; oral, 20 mg single dose, enteric-coated capsules).
`O=C(Nc1nc2cccc(-c3ccc(CN4CCS(=O)(=O)CC4)cc3)n2n1)C1CC1`: “treatment-emergent adverse events” 0% (measured: blood and lymphatic disorders; rheumatoid arthritis patients; oral, 200 mg once daily, 4 weeks, any relatedness).
The concentration of `CSc1cc(C)nc(SC)c1NC(=O)CN1CCN(CCSc2nc3ccccc3[nH]2)CC1` is reported as 2.6 ng/g (mouse Crl:CD1 (ICR), female, olfactory bulb; intranasal, 50 µL of 3.24 mg/mL solution, daily for 7 days, 120 min, 0.01 N HCl solution vehicle).
For `CC(C)(C(=O)N1CCOc2c(C#N)cncc2C1)C(F)F`, “subjects with TEAE” read 0% (measured: phlebitis; human, both sexes; oral, 10 mg once daily, 14 days, multiple ascending dose).
Under “adverse event incidence”, `FC(F)(F)c1ccc(CNc2ccc(Cc3c[nH]c4ncc(Cl)cc34)cn2)cn1` is recorded as 9% (measured: Hypophosphataemia; patients with advanced solid tumours; oral, dose not given, grade 3 and 4, possibly related to drug).
Under “subjects with infections”, `Cc1cc(-c2nccc3c2ccn3CC(=O)Nc2ccc(-c3cnccn3)cn2)ccn1` is recorded as 0% (human; 20 mg once daily, multiple ascending dose).
With `CCc1cc(C(=O)NC)c2nccc(N3CCc4c(cc(Cn5ccnc5)cc4-c4cn(C)nc4C(F)(F)F)C3=O)c2c1` the body weight was 257.3 ± 1.5 g (Sprague Dawley rat; oral, 100 mg/kg once daily, day 6, 7-day toxicology study).
`Cc1ccc(O)c(-n2nc3ccccc3n2)c1` — result for “daily dermal uptake, percentile”: 2710 ng/kg body weight/day (exposure assessment; human, age 16-21 years; concentration not given, spray sunscreen, 95th percentile).
`O=C1NCCc2nc(OCc3cccc(F)c3)ccc21` — result for “Irwin test score”: 0 (measured: loss of Righting; Sprague-Dawley rat male; oral, 100 mg/kg, 0 min; reference: baseline, direction not given).
For `O=C(CCCCCCC(=O)Nc1ccc(CC[18F])cc1)NO`, the tissue uptake was 13 ± 2.7 %ID/g (athymic nu/nu male mice, LNCaP xenograft, liver; intravenous, 0.5 h).
`NC1(C(=O)N[C@@H](CCO)c2ccc(Cl)cc2)CCN(c2nc[nH]c3nccc2-3)CC1` — result for “incidence of decreased appetite”: 66.7% (metastatic CRPC patients; 320 mg b.i.d., any grade, treatment-related, together with: enzalutamide 160 mg daily).
Under “critical aggregation concentration”, `CN(CCCNC(=O)c1cccc(C(=O)O)c1)CCCNC(=O)c1cc(NC(=O)c2cc(NC(=O)c3cc(NC(=O)c4nc(NC(=O)C[C@H](CNC(=O)c5cc(NC(=O)c6cc(NC(=O)c7cc(NC(=O)c8nccn8C)cn7C)cn6C)cn5C)NC(=O)c5ccccc5)cn4C)cn3C)cn2C)cn1C` is recorded as 1 µM (dynamic light scattering; 0.1% DMSO in PBS; 25 °C).
`CC[C@H](C)[C@H](NC(=O)[C@H](CO)NC(=O)[C@H](CCCNC(=N)N)NC(C)=O)C(=O)N[C@H]1CSSC[C@@H](C(=O)N[C@H](C(N)=O)[C@@H](C)O)NC(=O)[C@H](CCCNC(=N)N)NC(=O)[C@H](Cc2c[nH]cn2)NC(=O)[C@H](C)NC(=O)CNC(=O)[C@H](Cc2c[nH]c3ccccc23)NC(=O)[C@H](CC(=O)O)NC(=O)[C@H](CCC(N)=O)NC(=O)[C@H](Cc2cccc3ccccc23)NC(=O)[C@H](C(C)C)NC1=O` has a retention factor of 1.17 ± 0.006 (isocratic RP-HPLC, C18; 32% acetonitrile, phosphate pH 7.4, 1% TFA; 25 °C).
The depurination half-life of `CO[C@@H]1[C@H](O)[C@@H](CO)O[C@H]1n1c([N+](=O)[O-])nc2c(=O)[nH]c(N)nc21` is reported as 11 h (citrate phosphate buffer; 0.5 mM, pH 2.15, 37 °C).
With `CCN1/C(=C/C(C)=O)Sc2ccc(F)cc21` the QRS duration was 36 ± 1 ms (cynomolgus monkey; oral, 30 mg/kg, 1 h post-dose).
The incidence of `C=CC(=O)N1CCC(c2ccc(C(N)=O)c(-c3ccc(Oc4ccccc4)cc3)n2)CC1` is reported as 0.9% (serious adverse event Leukocytosis; patients with relapsed/refractory MCL; oral).
`Cn1cc(Nc2nccc(-c3ccc4c(c3)CN(C3COC3)CC[C@H]4NC(=O)c3cn(C(C)(C)C)nn3)n2)cn1` — result for “naive B cell count change”: 50.2% (human, whole blood; 300 mg twice daily, day 14; reference: pre-dose baseline).
`C[C@@H](Nc1cc(F)cc(F)c1)c1cc(C(=O)N(C)C)cc2c(=O)cc(N3CCOCC3)oc12`: “share of patients with dose reduction” 0% (patients with advanced solid tumours; oral, 120 mg twice daily, monotherapy dose-finding, 2:5 schedule).
`C[C@@]1(O)C[C@]23C[C@H]1CC[C@H]2[C@]1(C)CCC(=O)Nc2c(O)ccc(c2O)C(=O)S[C@H]2CC(=O)[C@@](C)(CCC(=O)Nc4c(O)ccc(c4O)C(=O)S[C@H]3CC1=O)[C@@H]1CC[C@@H]3C[C@]21C[C@@]3(C)O` gave a clearance of 3 mL/min/kg (C57BL/6 mice, plasma; intravenous, 10 mg/kg).
For `OC[C@H]1O[C@@H](c2ccc(F)c(Cc3cc4ccccc4s3)c2)[C@H](O)[C@@H](O)[C@@H]1O`, “hypoglycaemia adverse events” read 9 % patients (Japanese type 1 diabetes patients; oral, 50 mg/day, day 2).
`CCCCOc1ccc([C@H]2CC[C@H](CCC)CC2)c(F)c1F` gave a median concentration of 5.18 ng/mL (human mother-newborn pairs, maternal serum; male fetuses).
With `CCN1CCN(Cc2ccc(NC(=O)c3ccc(C)c(NC(=O)c4cncc(-c5cccs5)c4)c3)cc2C(F)(F)F)CC1` the plasma concentration was 474 ng/mL and 627 ng/mL and 493 ng/mL (LC-MS/MS; C57BL/6 mouse, plasma; intraperitoneal, 15 mg/kg single dose, 0.25 h).
For `C=CC(=O)NC1CCN(c2ncc3ncnc(Nc4ccc(Oc5ccc6c(c5)ncn6C)c(C)c4)c3n2)CC1`, the AUC(0-24h) was 10.4 µM·h (healthy male volunteers, plasma; oral, 60 mg, 14C-labelled solution, geometric mean).
`CCn1c2ccccc2c2cc(-n3nncc3-c3ccccc3)ccc21` — result for “liver enzymes and blood counts”: “no effect” (measured: ALP, ALT, AST, albumin, bilirubin; BALB/c mice, serum; dose not given, 4 weeks).
For `O=C(O)c1cccc(C(=O)O)c1`, “apparent dissolution enthalpy” read 3.87 kcal/mol (betaine/ethylene glycol DES-water; DES mass fraction 0.10).
For `Cc1ccc(C(=O)N(CCCN)C(c2nc3snc(C)c3c(=O)n2Cc2ccccc2)C(C)C)cc1` (stereo not drawn), “patients with adverse event” read 14% (hypophosphataemia grade ≥3 (CTCAE); human patients; intravenous, 16 mg/day).
`O=C(O)CCC(=O)O.[2H]C([2H])([2H])Oc1cc(C)c2[nH]ccc2c1CN1CC[C@@H](C2CC2)C[C@H]1c1ccc(C(=O)O)cc1` — result for “subjects with proteinuria TEAE”: 25% (multiple ascending dose; healthy Chinese subjects; 125 mg twice daily).
For `Cc1ccc([C@@H]2O[C@H](CO)[C@@H](O)[C@H](O)[C@H]2O)cc1Cc1ccc(-c2ccc(F)cc2)s1`, “urinary sodium excretion change” read -41.5 mEq (Japanese type 2 diabetes patients; 25 mg, day 18, 24 h urine collection; reference: baseline).
The median Tmax of `COc1ncc(-c2nc3c(n2C(C)C)[C@H](c2ccc(Cl)cc2)N(c2cc(Cl)cn(C)c2=O)C3=O)c(OC)n1` is reported as 4.2 h (human patients, plasma; oral, 30 mg, cycle 1 day 1, low-dose).
`CCN(Cc1nc2c(N)nc3cc(-c4cc[nH]n4)ccc3c2[nH]1)C(C)=O` has a median Tmax of 1 to 2 h (human patients, plasma; intratumoral, dose not given).
`Nc1ncnc2c1ncn2[C@H]1C[C@@H]2OP(=O)(O)OC[C@H]3O[C@@H](n4cnc5c(N)ncnc54)C[C@@H]3OP(=O)(O)OC[C@H]2O1` — result for “mean platelet volume”: 5.03 ± 0.42 fL (non-tumor-bearing mice, blood; intravenous, 1 mg/kg, toxicity study).
Under “participants with TEAE”, `Cc1ccc(Sc2ccccc2N2CCNCC2)c(C)c1` is recorded as 0% (measured: Nausea; healthy adult men; oral, 10 mg single dose).
`CC(C)[C@@H](CN1CC[C@@](C)(c2cccc(O)c2)[C@@H](C)C1)NC(=O)[C@H]1Cc2ccc(O)cc2CN1` has a dose-normalised AUC(0-t) of 322 ± 103 ng·h/mL (rat, Sprague-Dawley, plasma; ip, 5 to 10 mg/kg).
The faecal excretion of `O=C1CC[C@H](N2Cc3cc(N4CCN(CC5CCN(c6ccc([C@@H]7c8ccc(O)cc8CC[C@@H]7c7ccccc7)cc6)CC5)CC4)ccc3C2=O)C(=O)N1` is reported as 50.5% (radiolabelled compound; female SD rats; oral, 20 mg/kg, 0-168 h; reference: dose).
`C=CCN1CC(=O)N2[C@@H](Cc3ccc(O)cc3F)C(=O)N(Cc3cccc(N4CC(N5CCN(CC)CC5)C4)n3)C[C@@H]2N1C(=O)NCc1ccccc1` has a treatment-related vomiting of 0% (advanced solid tumour patients; oral, 10 mg twice daily, grade ≥3, dose-escalation).
